Assay results gathered from unrelated publications.
Numbered parts are unrelated; each lists some results of a single study. Substitutions count along the parent as printed.

Set 1
Target: Ras GTPase-activating protein-binding protein 1, RRM domain (G3BP1, Homo sapiens, UniProt Q13283)
Sequence of UniProt Q13283 (whole entry, looked up): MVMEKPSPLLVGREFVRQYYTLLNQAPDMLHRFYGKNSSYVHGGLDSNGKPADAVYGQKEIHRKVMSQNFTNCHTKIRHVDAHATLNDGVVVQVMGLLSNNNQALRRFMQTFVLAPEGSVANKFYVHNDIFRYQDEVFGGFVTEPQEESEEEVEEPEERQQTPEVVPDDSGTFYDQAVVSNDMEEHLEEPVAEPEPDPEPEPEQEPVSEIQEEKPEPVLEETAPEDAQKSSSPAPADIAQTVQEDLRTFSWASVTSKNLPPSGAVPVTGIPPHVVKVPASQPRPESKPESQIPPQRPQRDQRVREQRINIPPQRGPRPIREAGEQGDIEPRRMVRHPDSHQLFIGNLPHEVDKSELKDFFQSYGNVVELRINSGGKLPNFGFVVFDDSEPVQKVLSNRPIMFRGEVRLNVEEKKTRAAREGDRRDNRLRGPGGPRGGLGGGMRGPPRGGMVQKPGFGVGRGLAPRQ
Technique: RNA Bind-n-Seq
Form: RNA
Matrix: in vitro
Concentration: 1 µM
Setting: whole 134-nt RNA, ends assumed
Together with: 150 mM KCl
Reference: input library
Direction: higher = stronger binding
Sequence | log2 enrichment
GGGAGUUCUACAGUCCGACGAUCGUCCUGUGCUACACAUCGUAUGUACCGAAUCGGUUUUUUGGUUUUUUGGUUUUUUGGGAAAGUAUUAUGUUACGCCGUUCGGAUCUGCACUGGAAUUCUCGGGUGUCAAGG | -0.226
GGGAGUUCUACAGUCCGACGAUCCCUGUGCUACACAUCGUAUGUACCGAAUCGGCCCCCCGGGCCCCCCGGGGCCCCCCGGGGAAAGUAUUAUGUUACGCCGUUCGGAUCUGCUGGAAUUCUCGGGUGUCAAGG | -0.633
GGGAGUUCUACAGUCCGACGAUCCAAGUCCUGUGCUACACAUCGUAUGUACCGAAUCGGGGCCCGGGCCCGGGCCCGGGAAAGUAUUAUGUUACGCCGUUCGGAUCUGCACUUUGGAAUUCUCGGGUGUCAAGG | -0.981
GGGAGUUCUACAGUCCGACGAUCUUUGGUUAUGAACAGGAUUCGGAUUCACGUCUUGCCAACCAAUCGGGGGAGGAUCACUCCAGUGCCCAGGUCUCAGGAACCUCUGUCUUGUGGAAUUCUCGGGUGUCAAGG | -0.0402
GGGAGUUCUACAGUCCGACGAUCAGUCCUGUGCUACACAUCGUAUGUACCGAAUCGGGGCCCCGGGGCCCCGGGGCCCCGGAAAGUAUUAUGUUACGCCGUUCGGAUCUGCACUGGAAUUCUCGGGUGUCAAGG | -2.02
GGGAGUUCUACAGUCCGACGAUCGUCCUGUGCUACACAUCGUAUGUACCGAAUCGGGUUUUUGGUUUUUGGGGUUUUUGGGAAAGUAUUAUGUUACGCCGUUCGGAUCUGCACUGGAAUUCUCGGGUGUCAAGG | -0.0301
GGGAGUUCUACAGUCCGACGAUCUGGCCCUGGUGGCAUGCGGGGAGGAAGAGGUGGCCUCAUGGAUCGUGGUGGUCCCGGUGGAAGGUUCAGAGGUGGCCGUGGUGGAGACAGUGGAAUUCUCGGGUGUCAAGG | 0.686
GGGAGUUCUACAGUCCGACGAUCAGUCCUGUGCUACACAUCGUAUGUACCGAAUCGGGGAGGGGAAAGGGGAAAAAGGGGAAAGUAUUAUGUUACGCCGUUCGGAUCUGCACUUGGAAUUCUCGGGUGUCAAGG | 0.871
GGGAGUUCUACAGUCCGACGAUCGUCCUGUGCUACACAUCGUAUGUACCGAAUCGGGGUGGGGAAAAAGGGGAAAAAGGGGAAAGUAUUAUGUUACGCCGUUCGGAUCUGCACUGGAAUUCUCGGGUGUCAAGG | 0.968
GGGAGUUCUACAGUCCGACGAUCUCCUGUGCUACACAUCGUAUGUACCGAAUCGGGUUUUUUUGGGUUUGGGAAAAAAAGGGAAAGUAUUAUGUUACGCCGUUCGGAUCUGCAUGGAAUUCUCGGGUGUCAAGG | -0.0749
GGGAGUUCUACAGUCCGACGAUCGUCCUGUGCUACACAUCGUAUGUACCGAAUCGGGAGGGAAAAAAAGGGUUUUUUUGGGAAAGUAUUAUGUUACGCCGUUCGGAUCUGCACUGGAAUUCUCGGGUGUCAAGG | 0.219
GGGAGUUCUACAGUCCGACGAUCUGGGAGGUGGAUUUUGUUUAUUUUUUUAGCUCAUUUCCAGGGGUGGGAAUUUUUUUUUAAUAUGUGUCAUGAAUACAGUUGUUUUUGAAAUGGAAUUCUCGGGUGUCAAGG | 1.41
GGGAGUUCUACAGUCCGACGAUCAAGUCCUGUGCUACACAUCGUAUGUACCGAAUCGGUUUUGGGGUUUUGGGUUUUGGAAAGUAUUAUGUUACGCCGUUCGGAUCUGCACUUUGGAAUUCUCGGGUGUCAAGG | -0.254
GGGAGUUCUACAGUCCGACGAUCAGUCCUGUGCUACACAUCGUAUGUACCGAAUCAAAUUUAAAUUUUUAAAUUUUUAAAAAAGUAUUAUGUUACGCCGUUCGGAUCUGCACUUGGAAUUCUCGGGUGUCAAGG | -0.828

Set 2
Target: CCNF, cyclin fold, Cln2 fusion (human)
Technique: yeast growth competition, sequencing
Matrix: yeast
Setting: weak parent motif
Reference: not given
Direction: higher = stronger binding
Parent: PKN2 docking peptide (human); VSAVQKLDFSDTM
Substitution | normalised enrichment score
V1W | 1.67
A3G | -0.587
A3K | -0.152
V1D | -0.0741
V4R | 1.76
D11V | 1.12
K6P | -0.964
V4T | -0.499
L7I | -0.522
F9Y | 0.265
S10E | 2.06
D11E | 0.902
A3M | 0.135
F9T | -0.232
S10D | 0.99
T12S | 1.28
D8Y | 0.41
D8V | 2.28

Set 3
Target: Histone acetyltransferase KAT6A, winged helix 2, GST fusion (KAT6A, Homo sapiens, UniProt Q92794, residues 85-181)
Technique: protein binding microarray
Form: double-stranded DNA, one strand shown
Matrix: in vitro
Concentration: not given
Setting: 8-mer, flanks averaged, mean of 2 arrays, mostly near background
Reference: not given
Direction: higher = stronger binding
Residues (chain): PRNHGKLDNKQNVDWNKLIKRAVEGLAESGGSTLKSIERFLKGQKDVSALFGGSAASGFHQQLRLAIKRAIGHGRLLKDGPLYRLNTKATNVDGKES
Sequence | E-score
ATCGCCAT | 0.0762
GTGTTCTA | -0.00321
ATGTATTG | -0.00625
ATGACAAT | 0.0733
CGTAACCA | -0.216
GCCGAAGA | 0.15
AAAGCTAG | -0.0942
AAGTCAGA | -0.0784
CGGGGTTA | -0.122
AAGACACA | -0.0598
GGCCGTAC | 0.137
ACGAGTCC | -0.0724
AGTATGAT | -0.103
CAGGGCTC | 0.0473
AGTGTTCA | -0.161
ACTAGCCG | 0.0782
CAGAACGC | 0.0596
CGTATATC | -0.0443
GTGACTGA | -0.0916
CTCTCTAA | -0.102
CTGGACTC | -0.01
GAACTGCC | 0.00474
ATCTGATG | -0.0207
AAGAGGCT | -0.148
CTGTGAGA | -0.165

Set 4
Target: ABI1, truncated, D143A, DHFR fusion (Arabidopsis thaliana)
Technique: DHFR PCA, deep sequencing
Matrix: yeast
Setting: methotrexate growth selection, single substitutions
Together with: (+)-ABA 0.032 µM
Reference: wild-type fitted maximum
Direction: higher = stronger binding
Parent: PYL1, truncated, DHFR fusion (Arabidopsis thaliana); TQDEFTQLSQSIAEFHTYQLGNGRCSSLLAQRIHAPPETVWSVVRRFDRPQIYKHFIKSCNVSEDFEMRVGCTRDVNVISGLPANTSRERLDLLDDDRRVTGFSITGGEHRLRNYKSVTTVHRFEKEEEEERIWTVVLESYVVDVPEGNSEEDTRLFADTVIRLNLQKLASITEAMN
Substitution | relative binding score [%]
G108S | 0.193
L91Q | -5.78
L112D | -0.602
F66K | 1.15
G23W | 0.879
P146Y | -0.465
D159E | 1.41
V142K | -12
S63H | 12.6
S42P | -6.8
G108Y | -9.81
A13E | 41.5
G102F | 1.72

Set 5
Target: RING finger protein unkempt homolog, zinc fingers 1-6, GST-SBP tag (UNK, Homo sapiens, UniProt Q9C0B0, residues 30-357)
Sequence of UniProt Q9C0B0 (30-357, looked up): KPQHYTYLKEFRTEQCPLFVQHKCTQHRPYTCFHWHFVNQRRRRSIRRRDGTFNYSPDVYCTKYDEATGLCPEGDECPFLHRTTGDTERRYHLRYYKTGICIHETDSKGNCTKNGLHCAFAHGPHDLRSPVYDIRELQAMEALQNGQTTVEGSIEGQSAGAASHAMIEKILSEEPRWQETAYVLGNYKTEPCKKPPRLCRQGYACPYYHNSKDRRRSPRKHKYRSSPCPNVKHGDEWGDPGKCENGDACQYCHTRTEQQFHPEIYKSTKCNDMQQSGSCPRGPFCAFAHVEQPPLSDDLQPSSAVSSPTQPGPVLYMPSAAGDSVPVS
Technique: RNA Bind-n-Seq
Form: RNA
Matrix: in vitro
Concentration: not given
Setting: RNA with constant flanks, human and mouse sites, ends assumed
Reference: input RNA pool
Direction: higher = stronger binding
Sequence | bound/input enrichment [ratio]
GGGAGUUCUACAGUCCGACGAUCGUGGGUCAGGACCCUGUCUUGAGACAGGUGGAAGGAAAAAAUCCAGUCACAAUAUUUUCUCUAGCAACUAAUGAGAUGUGGCGAUCAGGGGAUAGUGAAGUUUACCAACUGGGUGAUGUCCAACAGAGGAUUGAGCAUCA | 0.881
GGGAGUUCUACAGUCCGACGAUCCGGAAGAAAGAUACAAAUAAAAGCAUCAAGCAUUGCACAGUUCUCUCCAAUAAUGUAGAUCAUCUUUUACUGAACUUAACACUGUCUGAUAUCAUGGUCUCGCUGGCAAAUGCUUCAACCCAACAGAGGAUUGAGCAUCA | 0.25
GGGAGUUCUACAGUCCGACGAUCGAUGCUUUCUGAAGUUGUAUUCAUAAAAAUUAUCCCAUCUUACAGUUAAUCAGAAGAUGUUCUUACCUUUGGUUUGCCUGCCUCCUGAAACACAAACCUGCAGAUUGCCCCUAACUUCAGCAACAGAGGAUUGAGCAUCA | 0.512
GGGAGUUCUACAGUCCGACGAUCGUUUCUCCAGAGGAAGCAAUCAAAUGUGAAGACAAAUUCACAAAAUCCAAAACUGUUUAUAGCAUUCUUCGUCAUGUUGCUGAGGUGUUAGAAUACACCAAGGAUGAGCAGCUGGAAAGCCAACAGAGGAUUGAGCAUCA | 0.151
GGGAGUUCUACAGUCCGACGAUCCUGUACUGUGGAAUAGCUUCUCCAGCAAUGAUUACUUCAGAGUUACCAGUGUUACAGGAUUCAACUAAUGAAACUACUGCCCACUCUGAUGCUGGCAGCGAACUUGAAGAAACAGAGGUCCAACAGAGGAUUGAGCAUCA | 0.112
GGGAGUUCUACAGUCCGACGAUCAUCUGUAUUAUCCAUGAAUUCAGUAACCCUCCCAAUGUCCGGAAUAAGGUGCGCAUUCGCAGCUGGAUGGACACUAUAGCAAACAUCAAUCAAGAGCUCAUUAAAUAUGAAUUCUUCCCUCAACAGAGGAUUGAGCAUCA | 1.05
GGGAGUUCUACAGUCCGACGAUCUGUCAUUAAAAUUAAGGUUUAUAUUGUGAAGCUUUUUUGAAAUUUUACUUUUUUUUGAGAGUUUUGCUCUGUCACCCAGGCUGGAGUGAGGUGGUACAAUCUCGGCUCACUGCAACCUCCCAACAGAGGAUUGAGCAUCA | 0.498
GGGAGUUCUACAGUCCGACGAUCUUCUGGUUUCCUUGGAGAAAAGCUCUGCUGCCCUGAUUAUGAACUCUAUAAUAGAGUAUAUAGCUUUUGUACCUUUUUUACAGGAAGGUGACUUUCUGUAAUCAUGUGAUGUAUAUUAAACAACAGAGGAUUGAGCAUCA | 3.06
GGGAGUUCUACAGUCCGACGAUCCUGCCCAAGAAGACCGAGAGCCACCACAAGGCCAAGGGCAAGUGAGGCCCCUACCGGUCGUUAGUGCGACUUUUACAGACACCAAAGGCUCUUUUCAGAGCCACCCACAACCUCAUUAGACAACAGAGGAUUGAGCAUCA | 0.745
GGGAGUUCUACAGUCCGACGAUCGGAAGAUAAGAUUUCUGUCUACUAAGUGAUGCUGUGAUACCUUAGGCACUAAAGCAGAGCUAGUAAUGCUUUUUGAGUUUCAUGUUGGUUUAUUUUCACAGAUUGGGGUAACGUGCACUGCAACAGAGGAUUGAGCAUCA | 0.204
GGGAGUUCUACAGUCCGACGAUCCCCACGCCACGGGGCCAUGGGCAGCUCGAGCCAGGCAGGCUGCUGCCCACGCUUACUGCCAGGGUGACCCCAGCCCUGGGGCCCAGCCACAACCACCCUGGCUUCAUGCCAGGGGCUGCUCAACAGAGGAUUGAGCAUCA | 0.104

Single results of other studies
Molecule | target | test | test system | setting | how to read | endpoint | result
PhoQ, residues 284 288 289 292 302 303 ASTSDA | PhoP, residues 12 14 15 18 19 NMSSL (Escherichia coli, UniProt P23836) | Sort-seq, measured: YFP reporter | E. coli | PhoQ-PhoP variant library, together with: 10 µM Mg2+ | reference: high Mg2+ state, higher = stronger signaling | fold induction | 15.6

A few entries again (set 1):
Sequence | log2 enrichment
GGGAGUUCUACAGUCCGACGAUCAGUCCUGUGCUACACAUCGUAUGUACCGAAUCGGGGCCCCGGGGCCCCGGGGCCCCGGAAAGUAUUAUGUUACGCCGUUCGGAUCUGCACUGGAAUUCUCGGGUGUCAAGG | -2.02
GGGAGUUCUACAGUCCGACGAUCGUCCUGUGCUACACAUCGUAUGUACCGAAUCGGGUUUUUGGUUUUUGGGGUUUUUGGGAAAGUAUUAUGUUACGCCGUUCGGAUCUGCACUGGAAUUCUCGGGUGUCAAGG | -0.0301
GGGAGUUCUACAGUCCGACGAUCUGGCCCUGGUGGCAUGCGGGGAGGAAGAGGUGGCCUCAUGGAUCGUGGUGGUCCCGGUGGAAGGUUCAGAGGUGGCCGUGGUGGAGACAGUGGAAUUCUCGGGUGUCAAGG | 0.686
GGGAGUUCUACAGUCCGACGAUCAGUCCUGUGCUACACAUCGUAUGUACCGAAUCGGGGAGGGGAAAGGGGAAAAAGGGGAAAGUAUUAUGUUACGCCGUUCGGAUCUGCACUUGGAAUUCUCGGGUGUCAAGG | 0.871
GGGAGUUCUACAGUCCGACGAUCGUCCUGUGCUACACAUCGUAUGUACCGAAUCGGGGUGGGGAAAAAGGGGAAAAAGGGGAAAGUAUUAUGUUACGCCGUUCGGAUCUGCACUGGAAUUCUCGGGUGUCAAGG | 0.968
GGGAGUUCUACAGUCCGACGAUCUCCUGUGCUACACAUCGUAUGUACCGAAUCGGGUUUUUUUGGGUUUGGGAAAAAAAGGGAAAGUAUUAUGUUACGCCGUUCGGAUCUGCAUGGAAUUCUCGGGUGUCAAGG | -0.0749
